Published values gathered from unrelated publications.
Numbered parts are unrelated; each lists some results of a single study. Positions count from the first letter of the parent shown.

Study 1
Target: ABI1, truncated, D143A, DHFR fusion (Arabidopsis thaliana)
Method: DHFR PCA, deep sequencing
Sample: yeast
Setting: methotrexate growth selection, single substitutions
Added: (+)-ABA 58 µM
Relative to: wild-type fitted maximum
Direction: higher = stronger binding
Starting sequence: PYL1, truncated, DHFR fusion (Arabidopsis thaliana); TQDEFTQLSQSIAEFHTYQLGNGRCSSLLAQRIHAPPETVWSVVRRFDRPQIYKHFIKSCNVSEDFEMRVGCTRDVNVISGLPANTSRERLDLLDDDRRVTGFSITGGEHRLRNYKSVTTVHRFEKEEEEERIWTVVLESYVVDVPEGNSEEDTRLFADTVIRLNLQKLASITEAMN; partner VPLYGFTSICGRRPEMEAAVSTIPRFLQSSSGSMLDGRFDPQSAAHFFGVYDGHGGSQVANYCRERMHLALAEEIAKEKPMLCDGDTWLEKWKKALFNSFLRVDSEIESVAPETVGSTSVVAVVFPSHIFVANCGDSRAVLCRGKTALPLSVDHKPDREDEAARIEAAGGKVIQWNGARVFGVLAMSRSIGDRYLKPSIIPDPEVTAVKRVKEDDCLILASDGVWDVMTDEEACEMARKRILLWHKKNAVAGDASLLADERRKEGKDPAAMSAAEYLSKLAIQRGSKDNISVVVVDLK
`R46W`: “relative binding score” 25.7%.
For `F56S`, “relative binding score” read -3.4%.
For `L166M`, “relative binding score” read 69.2%.
For `H55Y`, “relative binding score” read 76.8%.
Under “relative binding score”, `V43I` is recorded as 84.6%.
For `T154S`, “relative binding score” read 29.5%.
`V121I` — result for “relative binding score”: 82.9%.
`V121H`: “relative binding score” -9.53%.
For `M176K`, “relative binding score” read 87.2%.

Study 2
Target: CCND2, cyclin fold, Cln2 fusion (human)
Method: yeast growth competition, sequencing
Sample: yeast
Setting: weak parent motif
Relative to: not given
Direction: higher = stronger binding
Starting sequence: RBL2 docking peptide (human); STTRRRLFVENDS
`E10V`: “normalised enrichment score” 0.559.
`R5Y`: “normalised enrichment score” 0.187.
For `T2W`, “normalised enrichment score” read 0.063.
`S13I`: “normalised enrichment score” 0.29.
For `R5C`, “normalised enrichment score” read 0.322.
`S13H`: “normalised enrichment score” -0.0103.
`S13A` — result for “normalised enrichment score”: -0.032.
`T3Q` — result for “normalised enrichment score”: -0.0323.
`S13F`: “normalised enrichment score” 0.413.
`N11H`: “normalised enrichment score” 0.2.
Under “normalised enrichment score”, `L7D` is recorded as 0.441.
`T3F`: “normalised enrichment score” 0.308.
Under “normalised enrichment score”, `E10G` is recorded as -0.153.
Under “normalised enrichment score”, `L7K` is recorded as 0.0634.
For `F8R`, “normalised enrichment score” read 0.127.
`N11M`: “normalised enrichment score” 0.674.

Study 3
Target: Ras GTPase-activating protein-binding protein 1, full length (G3BP1, Homo sapiens, UniProt Q13283)
UniProt Q13283, sequence (whole entry, looked up): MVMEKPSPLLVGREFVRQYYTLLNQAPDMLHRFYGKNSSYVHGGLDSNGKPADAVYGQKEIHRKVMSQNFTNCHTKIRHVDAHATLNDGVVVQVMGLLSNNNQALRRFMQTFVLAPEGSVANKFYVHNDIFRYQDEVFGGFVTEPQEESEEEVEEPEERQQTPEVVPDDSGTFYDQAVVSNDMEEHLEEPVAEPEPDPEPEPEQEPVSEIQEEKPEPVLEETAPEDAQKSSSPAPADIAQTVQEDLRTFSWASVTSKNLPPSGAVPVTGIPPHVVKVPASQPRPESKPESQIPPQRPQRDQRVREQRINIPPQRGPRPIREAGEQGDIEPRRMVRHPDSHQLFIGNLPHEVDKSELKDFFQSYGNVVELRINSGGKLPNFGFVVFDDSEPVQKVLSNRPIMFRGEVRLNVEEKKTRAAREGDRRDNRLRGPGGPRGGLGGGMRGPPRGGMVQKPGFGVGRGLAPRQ
Method: RNA Bind-n-Seq
Form: RNA
Sample: in vitro
Tested at: 200 nM
Setting: whole 134-nt RNA, ends assumed
Added: 150 mM KCl
Relative to: input library
Direction: higher = stronger binding
The log2 enrichment of `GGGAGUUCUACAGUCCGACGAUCCCUGUGCUACACAUCGUAUGUACCGAAUCGGGCCCCCCCGGCCCCCCCGGCCCCCCCGGGGAAAGUAUUAUGUUACGCCGUUCGGAUCUGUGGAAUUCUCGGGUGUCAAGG` is reported as -0.195.
With `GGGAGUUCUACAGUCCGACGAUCUCCUGUGCUACACAUCGUAUGUACCGAAUCGGGGCCCCCCGGGCCCCCCGGCCCCCCGGGAAAGUAUUAUGUUACGCCGUUCGGAUCUGCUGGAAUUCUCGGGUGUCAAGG` the log2 enrichment was -0.0567.
With `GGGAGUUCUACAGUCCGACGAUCAAGUCCUGUGCUACACAUCGUAUGUACCGAAUCAAAUUUUUAAAUUUAAAUUUAAAAAAGUAUUAUGUUACGCCGUUCGGAUCUGCACUUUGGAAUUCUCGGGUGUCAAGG` the log2 enrichment was -1.72.
`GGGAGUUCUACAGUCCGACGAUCUGGGAGGUGGAUUUUGUUUAUUUUUUUAGCUCAUUUCCAGGGGUGGGAAUUUUUUUGUAAUAUGUGUCAUGAAUAAAGUUGUUUUUGAAAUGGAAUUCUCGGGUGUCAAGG` gave a log2 enrichment of 0.271.
With `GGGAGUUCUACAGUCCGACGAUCAGUCCUGUGCUACACAUCGUAUGUACCGAAUCGGGGUGGGGAGGGGAAAAAAAGGGGAAAGUAUUAUGUUACGCCGUUCGGAUCUGCACUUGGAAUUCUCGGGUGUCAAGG` the log2 enrichment was 0.431.
The log2 enrichment of `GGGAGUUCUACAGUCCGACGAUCACCAUGCAGGUGGGCAUCUUUGGGAAGUGGGGCAAGGGGGGGAUAGGGAGGGGGGAAACACUUUGGGAACAGGUGGUCCCAGGUCGUUUCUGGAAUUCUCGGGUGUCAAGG` is reported as 1.39.
`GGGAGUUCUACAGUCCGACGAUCGCAGGAAGUAAAAACAAAUGGAAAUGCUUCGGAUAGUGGCAGGGGAGGGGGUUGCUAAGGAAAGGGUGGGAUGGGAGUGGGUAAAGAGUUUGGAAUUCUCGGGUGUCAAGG` has a log2 enrichment of 1.02.
For `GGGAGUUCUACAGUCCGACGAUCCUCAAGUCCUGUGCUACACAUCGUAUGUACCGAAUCGGGAGGGUGGGAAAGGGAAAGUAUUAUGUUACGCCGUUCGGAUCUGCACUUCCAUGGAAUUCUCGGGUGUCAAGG`, the log2 enrichment was 1.35.
`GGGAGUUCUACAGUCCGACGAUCGCAGGAAGUAAAAACAAAUGGAAAUGCUUCGGAUAGUGGCAGGGGUGGGGGUUGCUAAGGAAAGGGUGGGAUGGGCGUGGGUAAAGAGUUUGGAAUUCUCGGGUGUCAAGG` has a log2 enrichment of 1.03.
The log2 enrichment of `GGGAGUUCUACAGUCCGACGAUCUGUGCUACACAUCGUAUGUACCGAAUCGGGGAAAAAAAGGAAAAAAAGGGGAAAAAAAGGGGAAAGUAUUAUGUUACGCCGUUCGGAUCUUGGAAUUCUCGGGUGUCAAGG` is reported as -0.504.

Study 4
Target: RING finger protein unkempt homolog, zinc fingers 1-6, GST-SBP tag (UNK, Homo sapiens, UniProt Q9C0B0, residues 30-357)
UniProt Q9C0B0, sequence (30-357, looked up): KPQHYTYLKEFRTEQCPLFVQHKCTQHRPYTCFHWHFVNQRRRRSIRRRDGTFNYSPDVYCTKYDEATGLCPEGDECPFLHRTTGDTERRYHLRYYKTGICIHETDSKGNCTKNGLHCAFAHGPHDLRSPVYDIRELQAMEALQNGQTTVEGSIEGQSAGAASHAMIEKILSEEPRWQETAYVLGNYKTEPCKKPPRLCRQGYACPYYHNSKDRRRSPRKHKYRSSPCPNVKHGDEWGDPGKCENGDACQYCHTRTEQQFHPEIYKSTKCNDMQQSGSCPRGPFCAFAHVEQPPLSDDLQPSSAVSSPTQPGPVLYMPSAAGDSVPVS
Method: RNA Bind-n-Seq
Form: RNA
Sample: in vitro
Tested at: not given
Setting: RNA with constant flanks, ends assumed
Relative to: input RNA pool
Direction: higher = stronger binding
For `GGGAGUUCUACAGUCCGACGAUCGUACAAGAAGAGCUUCUGAAGGGCCUGGAUAACAAGAACCCCAAGAUCAUAGUGGCCUGUACCGAAACACUGAGGAAAGCCUUAAGUGAAUUUGGUUCCAAAAUCAUCUCACUUAAGCCACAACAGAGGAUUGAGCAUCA`, the bound/input enrichment was 0.409 ratio.
`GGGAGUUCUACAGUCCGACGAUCUUUAUGGCAUGUAAUGGUGUUUAGUAAUAUUUUAAUGUAGAUUUUGAUUUAUUUCAGCAACCGUAAUUUUAAGAUAUUCUUUGAAUGAAAGUGUCUUCGUUUCUAUGAUACAGGUCAUUUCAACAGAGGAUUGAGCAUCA` has a bound/input enrichment of 10.8 ratio.
`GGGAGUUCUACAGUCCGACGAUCACCGGCGCAGUGCCCCGUCCUGAUUGAUCGCAUCGCUGGGCUCAGAUGACUGUAAAAUGAACCGAUGAAAUCCUUGCUUCUGGAAGAUUUUCUUGGGCAUCUCCGGGAAAGUGCGUUUUACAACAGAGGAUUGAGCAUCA` has a bound/input enrichment of 0.174 ratio.
With `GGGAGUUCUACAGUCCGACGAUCAGUAGAGAGAUAACAAAAGCUGCUCAGAGUCUCAAUGAACUUGAUUAUCUUUCUCAAGGAACCGAUCUUUCUGGAAUAGAAGUGAUAGAAAAUGAUCUACUUUUUAUUGCAAGAGCCCGACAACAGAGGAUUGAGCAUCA` the bound/input enrichment was 0.139 ratio.
For `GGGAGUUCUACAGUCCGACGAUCAAAAUACUACAAGCAGGUUUUAAGAGAAUGGGUGUUGACAAAAUAAUUCCUGUGGACAAAUCCGUAAAAGGAAAGUUUCAGGACAAUUUUGAAUUCGUUCAGUGGUUCAAGAAGUUUUUCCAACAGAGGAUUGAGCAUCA`, the bound/input enrichment was 0.117 ratio.

Study 5
Target: Interferon regulatory factor 5, full length, phosphomimetic (IRF5, Homo sapiens, UniProt Q13568-2, residues 1-514, K96S/S451D/S453D/S456D/S462D)
Method: protein-binding microarray
Form: double-stranded DNA, one strand shown
Sample: in vitro
Tested at: 250 nM
Setting: 60-bp whole probe
Added: salmon DNA 0.4 mg/ml
Relative to: random background probes
Direction: higher = stronger binding
Shared flanks, not repeated: GCCTAGCAC … GTCTTGATTCGCTTGACGCTGCTG
For `TGGAACCAGCGAACGAGCGGGTGCTAG`, the log fluorescence was -0.539 z-score.
For `TTAGGTATCGACTACCGGTTAGTGCTA`, the log fluorescence was 3.77 z-score.
`ATGGCTTTGCAGATAAATATGTGCTAG` has a log fluorescence of -0.14 z-score.
The log fluorescence of `AGCTATCACTATTCTAGGGAAGTGCTA` is reported as 3.01 z-score.
With `GACGGTATCTTACTGCTGACGTGCTAG` the log fluorescence was 0.0946 z-score.
`ATGCATGTGCTGTCTCAGAGTGTGCTA` has a log fluorescence of -0.297 z-score.
The log fluorescence of `TTAGGTATCGCGTTTCGGTTAGTGCTA` is reported as 6.8 z-score.
With `TTAGGTCTCTTTATCCTTTAGTGCTAG` the log fluorescence was 0.0601 z-score.
With `GACGATCTCAGTATCGCGACGTGCTAG` the log fluorescence was 0.169 z-score.
The log fluorescence of `TTAGGTCTCGGATTCGGTTAGTGCTAG` is reported as 0.37 z-score.
For `CTGTTAAAGAATTAAGAAGGGTGCTAG`, the log fluorescence was -0.12 z-score.
`CTTAACCTGGGTCTCTGAAGGTGCTAG` has a log fluorescence of -0.384 z-score.
